Published values gathered from unrelated publications.
Numbered parts are unrelated; each lists some results of a single study.

Sample 1 — method: RNA Bind-n-Seq; form: RNA; matrix: in vitro; tested at: 20 nM; setting: 6-mer, flanks averaged, single round; together with: 150 mM KCl; relative to: input library; direction: higher = stronger binding; endpoint: 6-mer enrichment (R)
Target: TAR DNA-binding protein 43, full length, His tag (TARDBP, Homo sapiens, UniProt Q13148, residues 1-414)
UUUGCA: 0.675
GAGACA: 0.944
GGCAGU: 1.6
UUUCCC: 0.617
ACUCGA: 0.614
GCUCGC: 0.781
CAAUUA: 0.638
UGAUAG: 0.866

Sample 2 — effect on: enzyme activity; mode: inhibitor; tested at: 20 µM; endpoint: inhibition
Target: Replicase polyprotein 1ab, polymerase (rep, Severe acute respiratory syndrome coronavirus 2, UniProt P0DTD1)
Cc1cc(Nc2cc(N3CCN(C)CC3)nc(Sc3ccc(NC(=O)C4CC4)cc3)n2)n[nH]1: -0.71%
COc1cc2ncnc(Nc3ccc(O)c(Br)c3)c2cc1OC: 3.75%
CCN(CC)CCCCNc1ncc2cc(-c3c(Cl)cccc3Cl)c(NC(=O)NC(C)(C)C)nc2n1: 1.04%
N[C@@H](C[C@@H](F)C(=O)O)C(=O)O (racemic): -0.6%
Oc1cccc(-c2c3nc(c(-c4cccc(O)c4)c4ccc([nH]4)c(-c4cccc(O)c4)c4nc(c(-c5cccc(O)c5)c5ccc2[nH]5)CC4)C=C3)c1: 1.83%
COCCOc1ccc2c(c1)ncn2-c1ccc2cccc(N3CCC(N)CC3)c2n1: 7.43%
CCCCN1CCCC1CNC(=O)c1cc(C#N)c2ccccc2c1OC (stereo not shown): -4%
Nc1ncnc2nc(-c3ccc(N4CCOCC4)nc3)cc(-c3cccc(Br)c3)c12: 7.49%
N#C/C(=C\c1ccc(O)c(O)c1)C(=O)NCc1ccccc1: 91.7%
COc1ccc(-c2cc(C(F)F)nn2-c2ccc(S(N)(=O)=O)cc2)cc1F: -5.44%
N#CC(=C(/N)Sc1ccccc1N)/C(C#N)=C(\N)Sc1ccccc1N: 3.91%
CC(=O)N[C@H](Cc1ccc2ccccc2c1)C(=O)N[C@H](Cc1ccc(Cl)cc1)C(=O)N[C@H](Cc1cccnc1)C(=O)N[C@@H](CO)C(=O)N[C@@H](Cc1ccc(O)cc1)C(=O)N[C@H](CCCNC(N)=O)C(=O)N[C@@H](CC(C)C)C(=O)N[C@@H](CCCNC(=N)N)C(=O)N1CCC[C@H]1C(=O)N[C@H](C)C(N)=O: 16%
Fc1ccc([C@@H]2CCNC[C@H]2COc2ccc3c(c2)OCO3)cc1: -2.11%
C[C@@H]1COCCN1c1cc(C2(S(C)(=O)=O)CC2)nc(-c2cccc3[nH]ccc23)n1: 1.27%
OCCn1cc(-c2cnc3nnn(Cc4ccc5ncccc5c4)c3n2)cn1: 4.28%
CC(C)[C@H](N)C(=O)OCC(CO)OCn1cnc2c(=O)nc(N)[nH]c21 (stereo partly shown): -4.52%
COc1cc(OC)c2c(=O)[nH]c(-c3cc(C)c(OCCO)c(C)c3)nc2c1: 0.41%
CC(=O)NCCCOc1ccc(C(=O)N2CCC(N3C(=O)CCc4ccccc43)CC2)cc1: -0.94%
Oc1c(Cl)cc(Cl)cc1Sc1cc(Cl)cc(Cl)c1O: 3.89%
COc1cc2c(Nc3ccc(NC(=O)c4ccccc4)cc3)ncnc2cc1OCCCN1CCOCC1: 5.24%
Cc1cc(C)cc(NC(=O)Cc2ccc(OC(C)(C)C(=O)O)cc2)c1: -2.18%
Nc1ncnc2c1ncn2C1CCCO1 (stereo not shown): 3.04%
COc1ccn2ncc(-c3nc4[nH]nc(NC(=O)c5ccc(F)cc5)c4cc3F)c2c1: 2.25%
O=C(/C=C/c1ccc(O)cc1)c1ccc(O)cc1O: 1.17%
COC(=O)N[C@H](C(=O)N[C@@H](Cc1ccccc1)[C@@H](O)CN(Cc1ccc(-c2ccccn2)cc1)NC(=O)[C@@H](NC(=O)OC)C(C)(C)C)C(C)(C)C: -2.76%

Sample 3 — method: protein-binding microarray; form: double-stranded DNA, one strand shown; matrix: in vitro; tested at: 0.8 µM; setting: whole 60-bp probe, no competitor; direction: higher = stronger binding; endpoint: fluorescence intensity; constant ends, left off below: … GTCTTGATTCGCTTGACGCTGCTG
Target: Centromere-binding protein 1, full length, N-terminal tag (CBF1, Saccharomyces cerevisiae, UniProt P17106, residues 1-351)
Sequence of UniProt P17106 (whole entry, looked up): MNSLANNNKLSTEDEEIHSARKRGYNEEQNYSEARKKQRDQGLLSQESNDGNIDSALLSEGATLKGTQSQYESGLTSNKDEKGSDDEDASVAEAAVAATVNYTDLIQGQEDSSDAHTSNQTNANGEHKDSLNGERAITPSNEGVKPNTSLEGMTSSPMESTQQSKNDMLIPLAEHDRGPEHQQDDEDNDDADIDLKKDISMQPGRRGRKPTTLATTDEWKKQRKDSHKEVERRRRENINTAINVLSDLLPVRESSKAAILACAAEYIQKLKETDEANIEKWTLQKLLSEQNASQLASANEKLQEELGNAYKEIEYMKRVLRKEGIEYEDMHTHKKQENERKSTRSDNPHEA
GAATTTATGAGCTGTCCCGTGAGCGTAGCGACGTAG: 654 a.u.
CTATCTGCAATAAACCACATGGCTACCGCACTTTTC: 652 a.u.
GAATAAGTTACCCCTCATGACTTCCCAAGTGTGTAG: 630 a.u.
GAAAAGGTTCAACATGTGATAGTAGCTCTACCGTAG: 1370 a.u.
GAATGGCACATACACCACCACATTCAATCATATTAG: 505 a.u.
GAAAAAGCACTAGGCCAGGTGATTATACCGCAGTAG: 748 a.u.
CTAAAAGAGCATTAGGGTCACGTGTATACATTCTTC: 13800 a.u.
GAATTTCTAAACGGTGATGTTACCCGTCTAAATTAG: 519 a.u.

Sample 4 — cell line: HEK-293T; effect on: pseudovirus infection; method: FDA-approved drug library screen; organism: VSV pseudotyped with SARS-CoV-2 spike; tested at: 10 µM; time: 16 h; relative to: vehicle-treated; endpoint: GFP-positive cells
CC1(C)S[C@@H]2[C@H](NC(=O)Cc3ccccc3)C(=O)N2[C@H]1C(=O)O: 78.2%
Oc1ncnc2[nH]ncc12: 99.2%
CN(C)CCCN1c2ccccc2Sc2ccc(Cl)cc21: 24.9%

Sample 5 — method: protein-binding microarray; form: double-stranded DNA, one strand shown; matrix: in vitro; tested at: 2200 nM top; setting: 60-bp whole probe; together with: salmon DNA 0.4 mg/ml; relative to: random background probes; direction: higher = stronger binding; endpoint: fitted relative affinity; constant ends, left off below: GCCTAGCAC … GTCTTGATTCGCTTGACGCTGCTG
Target: Interferon regulatory factor 7, full length, phosphomimetic (IRF7, Homo sapiens, UniProt Q92985, residues 1-503, S471D/S472D/S475D/S476D/S477D/S483D/S484D/S487D)
Target sequence (chain): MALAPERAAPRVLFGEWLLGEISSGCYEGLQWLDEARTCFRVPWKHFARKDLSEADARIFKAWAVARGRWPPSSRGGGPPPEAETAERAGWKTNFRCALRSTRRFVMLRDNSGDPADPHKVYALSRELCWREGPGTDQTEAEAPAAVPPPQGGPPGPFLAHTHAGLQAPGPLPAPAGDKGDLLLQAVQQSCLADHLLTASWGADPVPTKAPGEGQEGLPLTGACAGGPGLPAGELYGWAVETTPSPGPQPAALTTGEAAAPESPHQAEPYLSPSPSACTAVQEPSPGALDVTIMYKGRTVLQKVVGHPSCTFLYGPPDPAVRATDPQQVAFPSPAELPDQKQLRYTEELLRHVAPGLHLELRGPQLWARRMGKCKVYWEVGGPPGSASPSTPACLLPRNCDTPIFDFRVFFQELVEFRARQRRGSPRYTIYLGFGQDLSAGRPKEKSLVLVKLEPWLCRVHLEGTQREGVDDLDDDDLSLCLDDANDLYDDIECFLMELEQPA
GACGATATCGGGTTTCGAGGCGTGCTA: 1.19 z-score
GGCGGTATCGGGTTTCGGGACGTGCTA: 1.05 z-score
TCATTTCTGTTGTCTGTGACTGTGCTA: 2.54 z-score
TCAGGGCTCTTCTCTGAAACTGTGCTA: -0.7 z-score
TTGGGTTTCGGTATCGGTTAGTGCTAG: 6.49 z-score
TTAGGACTGGGTCCCGGTTAGTGCTAG: -0.643 z-score
GTTCTACCTCTGCCTTTTGTGTGCTAG: 2.56 z-score
CAAGTTTTTATTTTCTGAATGTGCTAG: 3.02 z-score

Single results of other studies
EIF4A1: Eukaryotic initiation factor 4A-I (EIF4A1, Homo sapiens, UniProt P60842, residues 1-406, full length assumed)
Sequence of UniProt P60842 (whole entry, looked up): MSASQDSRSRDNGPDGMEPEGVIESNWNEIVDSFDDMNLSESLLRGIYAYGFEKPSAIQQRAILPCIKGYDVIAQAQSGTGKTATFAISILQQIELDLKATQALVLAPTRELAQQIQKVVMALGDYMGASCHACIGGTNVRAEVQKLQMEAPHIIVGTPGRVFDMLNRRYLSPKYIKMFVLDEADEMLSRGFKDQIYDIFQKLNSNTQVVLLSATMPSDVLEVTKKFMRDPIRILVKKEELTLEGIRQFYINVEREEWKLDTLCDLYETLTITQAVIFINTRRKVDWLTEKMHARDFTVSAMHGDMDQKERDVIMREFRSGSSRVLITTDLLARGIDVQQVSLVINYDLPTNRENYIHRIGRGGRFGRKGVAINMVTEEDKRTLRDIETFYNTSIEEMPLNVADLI
CGGA — 4-mer enrichment (EIF4A1; RNA Bind-n-Seq; RNA, in vitro; 90 pmol, 4-mer, random 30-nt RNA, single round, together with: 3 µM DMDA-PatA, 2 mM ADP, 2 mM phosphate; relative to: input library, higher = stronger binding): 0.951 fold
CC1(C)CC(Nc2ccc(Nc3ccccc3)cc2)CC(C)(C)N1 — inhibition (Replicase polyprotein 1ab, main protease (rep, Severe acute respiratory syndrome coronavirus 2, UniProt P0DTD1); enzyme activity, inhibitor; 20 µM): 27.9%
GCAC — 4-mer enrichment (EIF4A1; RNA Bind-n-Seq; RNA, in vitro; not given, 4-mer, random 30-nt RNA, single round, together with: RocA, ADP, phosphate; relative to: input library, higher = stronger binding): 0.704 fold

Excerpt of the above (sample 2):
CCN(CC)CCCCNc1ncc2cc(-c3c(Cl)cccc3Cl)c(NC(=O)NC(C)(C)C)nc2n1: 1.04%
N[C@@H](C[C@@H](F)C(=O)O)C(=O)O (racemic): -0.6%
Oc1cccc(-c2c3nc(c(-c4cccc(O)c4)c4ccc([nH]4)c(-c4cccc(O)c4)c4nc(c(-c5cccc(O)c5)c5ccc2[nH]5)CC4)C=C3)c1: 1.83%
COCCOc1ccc2c(c1)ncn2-c1ccc2cccc(N3CCC(N)CC3)c2n1: 7.43%
